Published values collected from several papers.
A part holds a random share of what one study measured.

Series 1
Target: RNA binding protein fox-1 homolog 2, RRM domain, GST-SBP tag (RBFOX2, Homo sapiens, UniProt O43251-10, residues 100-194)
Method: RNA Bind-n-Seq
Molecule type: RNA
Matrix: in vitro
Concentration: 365 nM
Notes: natural RNA segment, single round, ends assumed
Relative to: no-protein control
Direction: higher = stronger binding
Residues (chain): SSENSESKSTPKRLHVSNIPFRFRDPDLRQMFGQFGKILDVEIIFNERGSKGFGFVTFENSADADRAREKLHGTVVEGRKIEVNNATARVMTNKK
| Strand | RBNS enrichment (R) |
| --- | --- |
| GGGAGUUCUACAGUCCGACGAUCAUUUAGUUUCCAGGCCAACCAUCCAGAUAGAGAUUCCCUCUUUCCUUUGAGCAGUGCUCUCAAGAGCUCCGUGCCUGUCCACAAUGACCUAGAGUGCAUCCUGCUCAUUGUGGAAUUCUCGGGUGCCAA | 0.361 |
| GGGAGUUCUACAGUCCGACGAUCGGAAGAACAGCCUUUUGCAUCUGAGGCGACCAUUUUUACACCAUGCAGAUCUUCGUGGUUAUCAUCUCAAAGCCAUGUUCAGCAGCAGCGUUUGGACAGCAGUGUUCUGUUGGAAUUCUCGGGUGCCAA | 0.965 |
| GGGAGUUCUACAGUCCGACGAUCUUAAAGCAAGGAAAAGUGUCACUGAAACAUAAACUGCACCUUAUUGUUUUAUAUUUUUGUACAGAUGAGAAGUUGAGGUAGAACACUGAGUAGAAAGGGCGACUGACCCUUGGAAUUCUCGGGUGCCAA | 1.33 |
| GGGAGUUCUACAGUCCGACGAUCGCUCCUCCAGCUGUAUCUGCACCUGCCUCUCUGUCCUGGCCAGGGGUGGACAACUGGGGUCCCCCAAAACUCAGUCCUGGCACCUCAACUGUGACAAUCAGCAAAGCCCCUGGAAUUCUCGGGUGCCAA | 0.34 |
| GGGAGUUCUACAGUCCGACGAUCAUGGGGGCAAAUGGCCCUUUUGGCUGUCCCCUCGCCAGGUAAUGGUAGUUCCAGUGGGACCAACCUGUGAUGAAUAUGCCCAAAAGGUACGACAACAAUUCCACGAUGCCUGGAAUUCUCGGGUGCCAA | 0.331 |
| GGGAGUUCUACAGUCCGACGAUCCACCCCACCUUUUUCCUUCUCCCCAAUUACUCCCCUGAAUCAAUGUACAAAUCAGCACCCACAUCCCCUUUCUUGACAAAUGAUUUUUCUAGAGAACUAUGUUCUUCCCUUGGAAUUCUCGGGUGCCAA | 1.69 |
| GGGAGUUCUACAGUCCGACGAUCUUAUACGUGUAUGUGUGCCCUCUCCUUACAUACACACCCUGGAAUAGAGUUCUCACACCGUUCAAUUUUGCACAUAUGUCCUCAUGGAUCCCCAGUUUUGUCCCUCCACUUGGAAUUCUCGGGUGCCAA | 2.01 |
| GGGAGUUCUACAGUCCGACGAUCCUUAUUUUCCACCAUUUAAAAAUAAUAAACAUGUUUCUUACCACCGUAUGUUCAUAUGGAUAAGACUAAGUCCAAAAAGGUGACUACAUCCAAAUUUAUAUUUCGGGGAAUGGAAUUCUCGGGUGCCAA | 0.398 |
| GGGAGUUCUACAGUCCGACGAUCGAUAUAAUCCAGAAAUUGUUACUUCGGAGCAUGACAAUAGAUUUCUUUAACAAAGACUCAAGAUCAAAUUUCUUACCUAAAAGUUUAGGUUAACUGUUGACUCCUCAAGGUGGAAUUCUCGGGUGCCAA | 1.95 |
| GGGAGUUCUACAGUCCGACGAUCAUUGUUCACGGAAAACAGAUCUUCUUCUCUCUUGUCCACCUAUUAAUUGUUUACAAUAUUUGUACAUCUAUGCAAAAUACUUGAAUGGGCCAUGGUGCCUUUUUUCCUUGUGGAAUUCUCGGGUGCCAA | 0.774 |
| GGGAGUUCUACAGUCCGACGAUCUGGACAGUGUUCUAUUAACUCAUUGAAUGUGUUUCCUUUGUCUUGUGUUAAUAAAUAUUGAUGCUUGAUUAUGUUUAAUUCUUAAACCUUGGGUGGAGCUGGGUGGUGUUUGGAAUUCUCGGGUGCCAA | 0.993 |
| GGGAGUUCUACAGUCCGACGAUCUUUUCUUGGCAAGUUUUAUUGUGAGUUUUUCUAAUUAUGAAGCAAAAUUUCUUUUCUCCACCAUGCUUUAUGUGAUAGUAUUUAAAAUUGAUGUGAGUUAUUAUGUCAAAUGGAAUUCUCGGGUGCCAA | 0.932 |

Series 2
Target: Interferon regulatory factor 7, full length, phosphomimetic (IRF7, Homo sapiens, UniProt Q92985, residues 1-503, S101K/S471D/S472D/S475D/S476D/S477D/S483D/S484D/S487D)
Chain of UniProt Q92985 (whole entry, unmodified, looked up): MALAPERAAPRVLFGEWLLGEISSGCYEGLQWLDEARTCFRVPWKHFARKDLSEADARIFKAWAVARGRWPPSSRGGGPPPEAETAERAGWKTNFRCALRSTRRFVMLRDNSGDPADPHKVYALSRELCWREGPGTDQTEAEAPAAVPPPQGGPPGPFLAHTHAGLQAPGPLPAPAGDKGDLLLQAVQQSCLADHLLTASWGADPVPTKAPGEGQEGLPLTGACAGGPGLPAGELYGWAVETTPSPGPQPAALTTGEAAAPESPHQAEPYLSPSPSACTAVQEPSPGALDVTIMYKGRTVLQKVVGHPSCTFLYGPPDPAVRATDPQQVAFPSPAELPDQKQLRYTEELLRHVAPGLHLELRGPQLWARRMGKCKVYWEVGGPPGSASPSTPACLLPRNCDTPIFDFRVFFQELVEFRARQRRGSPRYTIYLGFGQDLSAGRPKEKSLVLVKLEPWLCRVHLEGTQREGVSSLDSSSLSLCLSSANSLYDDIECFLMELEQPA
Method: protein-binding microarray
Molecule type: double-stranded DNA, one strand shown
Matrix: in vitro
Concentration: 250 nM
Notes: 60-bp whole probe
Added: salmon DNA 0.4 mg/ml
Relative to: random background probes
Direction: higher = stronger binding
Constant ends, left off below: GCCTAGCAC … GTCTTGATTCGCTTGACGCTGCTG
| Strand | log fluorescence [z-score] |
| --- | --- |
| GACGAACTCGGGTTTCGAGACGTGCTA | 3.37 |
| TTCGGACTGGGACTGGGTTAGTGCTAG | -0.242 |
| GACGGTTTCGGGAATGGGGACGTGCTA | 3.39 |
| GACGGTATCCTTTTCTTGACGTGCTAG | 0.662 |
| GACGGTTTCCTACTGCAGACGTGCTAG | 1.67 |
| TTTGGACTGGGTATCGGTTAGTGCTAG | 0.175 |
| GCCATTGTGGGTCTTGCAGAGTGCTAG | -0.69 |
| TTAGGACTGCTTATTCTTTAGTGCTAG | 0.0078 |
| TTAGGTATCGACACTTGGTTAGTGCTA | 0.38 |
| GACGAACTGGTGTATCGAGACGTGCTA | -0.681 |
| GACGCTTTCGGTCTCGGGACGTGCTAG | 1.5 |
| TACGGACTGGGGACTGGGGACGTGCTA | -0.586 |
| GACGATATCAGTGTCGAGACGTGCTAG | -0.368 |
| TCAGAATTGAAAATTAGTACTGTGCTA | -0.157 |
| TTAGGTATCCTCTTCCTTTAGTGCTAG | 0.265 |
| GACGGTTTCGGGACTGTGGACGTGCTA | 3.95 |
| TTCGGACTGCTTTTCCTTTAGTGCTAG | 0.565 |
| TCACATATTTATCTGCAACTGTGCTAG | 0.381 |
| GACGGTTTCGGTTCTGGGACGTGCTAG | 12.9 |
| TTAGGACTGGACTTGCGGTTAGTGCTA | -0.334 |
| GACGGTATCGACACTGGGGAAGTGCTA | -0.481 |
| GACGGACAGCTTCTCCTGACGTGCTAG | -0.715 |
| CTAGTTTTCATTTTCTGAATGTGCTAG | 5.95 |
| TCATATCCCTAATCTCAGACTGTGCTA | 1.04 |
| GACAATTTCAGTATCGAGACGTGCTAG | 0.501 |

Series 3
Target: RING finger protein unkempt homolog, zinc fingers 1-6, GST-SBP tag (UNK, Homo sapiens, UniProt Q9C0B0, residues 30-357)
Method: RNA Bind-n-Seq
Molecule type: RNA
Matrix: in vitro
Concentration: not given
Notes: RNA with constant flanks, human and mouse sites, ends assumed
Relative to: input RNA pool
Direction: higher = stronger binding
Target sequence (chain): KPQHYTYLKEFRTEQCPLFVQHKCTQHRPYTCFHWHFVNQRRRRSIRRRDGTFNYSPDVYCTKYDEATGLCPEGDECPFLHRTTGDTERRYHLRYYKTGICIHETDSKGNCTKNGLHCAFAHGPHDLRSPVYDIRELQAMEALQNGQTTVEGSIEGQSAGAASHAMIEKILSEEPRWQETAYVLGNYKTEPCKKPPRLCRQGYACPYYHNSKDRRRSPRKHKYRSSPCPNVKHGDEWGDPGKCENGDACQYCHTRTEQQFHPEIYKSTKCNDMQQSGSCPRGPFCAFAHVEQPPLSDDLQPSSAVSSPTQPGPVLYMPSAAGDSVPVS
| Strand | bound/input enrichment |
| --- | --- |
| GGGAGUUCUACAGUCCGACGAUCCCUUCCCCGACCACACCCCAAUGCCUUCCCAGCUUGGAAGCCAAGGCAGCUGAUGAAGGGAGCUCAGGAGAGCCGUCUUCAGCUGGGCUGGGGUUGGGGCUGCUGUGAGGAAAACCUGCCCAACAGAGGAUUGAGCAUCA | 0.0834 ratio |
| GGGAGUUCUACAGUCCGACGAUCUCCGGUUUGGUAAUCAAUACACCUGGAGAAAUGGCUGGAGCCUUCGUGGCAGUGUUUUUACUAGCAAUGUUUUAUGAAGGACUCAAGAUAGCCCGAGAGGGUCUGCUUCGAAAGUCUCAACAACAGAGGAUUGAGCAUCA | 0.128 ratio |
| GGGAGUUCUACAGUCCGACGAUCAGAAACGGUGAACUCCCCAGCUAUUUAUAAAUUUCAGAGUCGUCGAAAACGUUGACGUGUUAUAGAUAAGCCUUGUCAUUCUGUAUCAAAAAUCUGUUGUCGUUUUCUAGUAACUUCAAACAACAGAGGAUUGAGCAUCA | 0.401 ratio |
| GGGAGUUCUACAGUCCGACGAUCGAAGACGGCGACUGUACAUUAUCUCACUUAGAGAAUAUGAAAAUCAUUUUGUUUUGAAGCUAGGUAUUAAACUGGAGUAGCUAUUACGUUCUUGAAAACUGGGGCAGGUGUGCCCUUGACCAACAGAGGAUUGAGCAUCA | 33.7 ratio |
| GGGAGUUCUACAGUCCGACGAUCCUGCAUUAUUUGACCAGAGUUGAAGUGACAGAAUUUGAAGACAUUAAAUCAGGUUACAGAAUAGAUUUUUAUUUUGAUGAAAAUCCUUACUUUGAAAAUAAAGUUCUCUCCAAAGAAUUUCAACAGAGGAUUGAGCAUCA | 14 ratio |
| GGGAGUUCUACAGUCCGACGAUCCCAAAUGGAUUGCUUCUGACUCCGAGUCCACUGCUCUCCAGCAUACAUUUCUGGAGCAGCCUUAGUCCAGUUGCUCCGCUGAGUCCUGCCAGGCUGCAAGGGCCAAGCACGCUGUUCCAGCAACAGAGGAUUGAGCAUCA | 0.0589 ratio |
| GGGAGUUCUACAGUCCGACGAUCAAGUGAUAGUUGAUUUGAAUCUUUAAUACGUAUGGUUCGUUAUUUCCCAGCACAGCCUGACAGUUCUGUGUGAAAAGAACGAUCCCUCCCCCCGUGACCUAAAAUACUAUGGAAAGCUCACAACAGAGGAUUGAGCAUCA | 1.71 ratio |
| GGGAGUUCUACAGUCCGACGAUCUAUGCUACAAAAAUUUCUCGUUUUUCAAAUGUCUAUCAUCUCUCAAUUCAUAUUUCAAAAAACUUCGGAGCAGAUACGACAAAGGUCUUUUAUAUUGGCCUGAGAGGAGAGUGGACUGAGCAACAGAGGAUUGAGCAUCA | 0.318 ratio |
| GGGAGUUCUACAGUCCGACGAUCGUAUGAAUUUAUUUUCCUUUGCUACUCAUUACCUGACCACUUUCACUCCUCUAGAUACCCUUAGGAAUAAACCUGAACUGUUCCAAAUCGAUUCUUCCAAGAGCUUUGGUGUUGGUACCUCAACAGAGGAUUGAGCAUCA | 2.23 ratio |
| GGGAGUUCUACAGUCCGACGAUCAAAGGUGACAAGGCUCUUGAUGGCUACAGUAAAAAGAAGUAUGUCUGCAAAUUGCUCUUCAUCUUUCUCCUUGGUCAUGACAUUGACUUUGGACACAUGGAAGCUGUGAAUCUUCUGAGCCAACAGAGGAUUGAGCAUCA | 0.108 ratio |
| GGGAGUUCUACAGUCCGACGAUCCAUACUUGAACAUUUGUAUCGACUGCAUUGUCUCUCUUUUUUUGGCUAUAAUUAUUCACCUUUAGCUUUUGUCUCUUGUGCAUGCUAUCACAGUUUUGCUUGUAUUUUUAGCAUAUGAACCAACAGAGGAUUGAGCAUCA | 2.13 ratio |

Series 4
Target: Sal-like protein 4, full length isoform A (SALL4, Homo sapiens, UniProt Q9UJQ4, residues 1-1053)
Chain of UniProt Q9UJQ4 (whole entry, looked up): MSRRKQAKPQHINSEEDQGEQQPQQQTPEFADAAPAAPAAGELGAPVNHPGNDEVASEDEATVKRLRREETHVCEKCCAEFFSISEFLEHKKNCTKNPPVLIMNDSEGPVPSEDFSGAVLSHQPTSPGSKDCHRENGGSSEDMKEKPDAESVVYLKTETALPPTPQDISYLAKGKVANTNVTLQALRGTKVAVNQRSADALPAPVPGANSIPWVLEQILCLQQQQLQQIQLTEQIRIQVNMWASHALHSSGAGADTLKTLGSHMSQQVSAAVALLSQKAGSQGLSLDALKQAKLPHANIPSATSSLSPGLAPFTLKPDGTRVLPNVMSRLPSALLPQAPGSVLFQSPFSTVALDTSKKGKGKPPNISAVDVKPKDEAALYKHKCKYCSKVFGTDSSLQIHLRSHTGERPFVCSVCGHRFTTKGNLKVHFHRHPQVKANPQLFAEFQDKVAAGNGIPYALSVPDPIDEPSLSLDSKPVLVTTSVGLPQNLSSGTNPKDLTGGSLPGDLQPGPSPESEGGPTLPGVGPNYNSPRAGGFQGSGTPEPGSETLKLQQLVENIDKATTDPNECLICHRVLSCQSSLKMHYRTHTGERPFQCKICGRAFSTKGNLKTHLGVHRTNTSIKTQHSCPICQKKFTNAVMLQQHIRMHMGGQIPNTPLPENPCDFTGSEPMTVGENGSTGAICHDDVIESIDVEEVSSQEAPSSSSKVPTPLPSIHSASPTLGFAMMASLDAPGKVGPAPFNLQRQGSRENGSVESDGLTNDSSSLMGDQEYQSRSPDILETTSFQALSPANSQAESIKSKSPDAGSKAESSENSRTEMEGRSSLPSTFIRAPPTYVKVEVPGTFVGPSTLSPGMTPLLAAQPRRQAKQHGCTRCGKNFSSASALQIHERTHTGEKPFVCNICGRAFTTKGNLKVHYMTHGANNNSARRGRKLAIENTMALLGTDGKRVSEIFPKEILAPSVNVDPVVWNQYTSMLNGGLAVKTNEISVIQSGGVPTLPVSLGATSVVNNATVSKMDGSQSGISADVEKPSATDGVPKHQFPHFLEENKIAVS
Method: universal PBM
Molecule type: double-stranded DNA, one strand shown
Matrix: in vitro
Concentration: 600 nM
Notes: 8-mer, flanks averaged, mean of replicates
Direction: higher = stronger binding
| Strand | E-score |
| --- | --- |
| ATCGTTAA | 0.205 |
| CGGATAAG | -0.106 |
| ACTAGAGA | -0.000145 |
| AGCAAGTC | -0.206 |
| GCCGTCCC | -0.282 |
| ACCAGGGT | -0.302 |
| CTCTTTCA | 0.133 |
| AATGCTTA | 0.174 |
| GAATCCAC | -0.0493 |
| CCCGCCCC | -0.0997 |
| CCATAGTA | 0.0192 |
| AGACGAAG | -0.0118 |
| ACCGGGTC | -0.346 |
| GCAGATGC | -0.243 |
| CGGAGCTA | -0.18 |
| AAGCGGTG | -0.179 |
| CATTAAAA | 0.286 |
| AAGAAGAC | 0.000835 |
| GAACTGTC | -0.122 |
| ATGGGACG | -0.237 |
| CGGCCACG | -0.293 |
| TGACATCA | 0.141 |
| GAAACGTA | 0.183 |

Some of these lines once more (series 4):
| Strand | E-score |
| --- | --- |
| CCATAGTA | 0.0192 |
| AGACGAAG | -0.0118 |
| ACCGGGTC | -0.346 |
| GCAGATGC | -0.243 |
| CGGAGCTA | -0.18 |
| AAGCGGTG | -0.179 |
| CATTAAAA | 0.286 |
| AAGAAGAC | 0.000835 |
| GAACTGTC | -0.122 |
| ATGGGACG | -0.237 |
